{"data": "Experimental data collected from several papers", "note": "Lines come from different studies, so protocols differ. Numbers after ± are the reported error."}
{"Structure (SMILES)": "O=C([O-])CN1CCN(CC(=O)[O-])CCN(CC(=O)NCCc2ccc3c(c2)C2C=CCC2C(c2cc4c(cc2Br)OCO4)N3)CCN(CC(=O)[O-])CC1.[111In+3] (centres unmarked)", "system": "mice with Hec50 tumour xenograft, mammary gland", "conditions": "4 h", "endpoint": "tissue uptake", "value": "0.5 ± 0.07 %ID/g"}
{"Structure (SMILES)": "NC12CNCCNCC(NCc3ccc(CNC(=O)CCCC(=O)NCc4ccc(-c5nncnn5)cc4)cc3)(CNCCNC1)CNCCNC2.[64Cu+2]", "system": "athymic nude mice SW1222 xenograft, blood", "conditions": "1 h post injection, 24 h accumulation interval, added: huA33-TCO pretargeting", "endpoint": "tissue uptake", "value": "4.2 ± 0.8 %ID/g"}
{"Structure (SMILES)": "CN1C(=O)[C@@H](Cc2ccc(O)c(I)c2)NC(=O)CNC(=O)[C@H](Cc2ccc3ccccc3c2)NC(=O)[C@H](CCCNC(=N)N)NC(=O)[C@H]1CCCNC(=O)c1ccc(CNC(=O)CN2CCN(CC(=O)O)CCN(CC(=O)O)CCN(CC(=O)O)CC2)cc1 [lutetium-177 labelled]", "test": "item: 177Lu radioactivity", "system": "female CB-17 SCID mice, Daudi xenograft, kidney", "conditions": "intravenous, 0.16 nmol per mouse, 96 h", "endpoint": "tissue uptake", "value": "0.85 ± 0.15 %ID/g"}
{"Structure (SMILES)": "N=C(N)NCCC[C@H](NC(=O)CON=C[C@H](F)[C@@H](O)[C@H](O)[C@H](O)CO)C(=O)NCC(=O)N[C@@H](CC(=O)O)C(=O)O [fluorine-18 labelled]", "system": "nude mice, U-87 MG xenograft", "conditions": "intravenous, 0.5 h", "how to read": "relative to: tumour over blood", "endpoint": "tissue ratio", "value": "2.19 ± 0.55"}
{"Structure (SMILES)": "O=C([O-])CN1CCN(CC(=O)[O-])CCN(CC(=O)[O-])CCN(CC(=O)[O-])CC1.[64Cu+2]", "system": "healthy athymic nude mice, blood", "conditions": "intravenous, 24 h", "endpoint": "tissue uptake", "value": "0.16 %ID/g"}
{"Structure (SMILES)": "CCCC[C@H](NC(=O)CNC(=O)CNC(=O)CN1CCN(CC(=O)O)CCN(CC(=O)O)CC1)C(=O)N[C@H]1CC(=O)NCCCC[C@@H](C(N)=O)NC(=O)[C@H](Cc2c[nH]c3ccccc23)NC(=O)[C@H](CCCNC(=N)N)NC(=O)[C@@H](Cc2ccccc2)NC(=O)[C@H](Cc2c[nH]cn2)NC1=O [gallium-67 labelled]", "system": "C57 mice, female, B16/F1 melanoma, intestines", "conditions": "intravenous, 0.037 MBq, 0.5 h", "endpoint": "tissue uptake", "value": "1.86 ± 0.24 %ID"}
{"Structure (SMILES)": "O=C([O-])c1cccc(CN(CCN(Cc2cn(Cc3ccccc3)nn2)Cc2cccc(C(=O)[O-])n2)Cc2cn(Cc3ccccc3)nn2)n1.[64Cu+2]", "system": "healthy athymic nude mice, stomach", "conditions": "intravenous, 15 min", "endpoint": "tissue uptake", "value": "2.64 %ID/g"}
{"Structure (SMILES)": "CCCC[C@@H]1NC(=O)[C@@H](NC(=O)[C@H](CCC(=O)O)NC(=O)CNC(=O)CN2CCN(CC(=O)O)CCN(CC(=O)O)CCN(CC(=O)O)CC2)CCCCNC(=O)C[C@@H](C(N)=O)NC(=O)[C@H](C(C)C)NC(=O)[C@@H]2CCCN2C(=O)[C@H](CCCNC(=N)N)NC(=O)CNC(=O)[C@H](Cc2c[nH]c3ccccc23)NC(=O)[C@H](CCCNC(=N)N)NC(=O)[C@@H](Cc2ccccc2)NC(=O)[C@H](Cc2c[nH]cn2)NC(=O)[C@H](CCC(=O)O)NC1=O [gallium-67 labelled]", "system": "C57 mice, B16/F10 lung metastases, skin", "conditions": "intravenous, 0.037 MBq/mouse, 4 h", "endpoint": "tissue uptake", "value": "0.33 ± 0.12 %ID/g"}
